Published values from different studies.
± marks the error that the study gave.

| SMILES | assay | system | conditions | Cmax |
| --- | --- | --- | --- | --- |
| O=C(O)CNC(=O)c1c(O)c2ccccc2n(OCC2CC2)c1=O | LC-MS/MS | human, blood | oral, 300 mg multiple doses | 2340 ± 788 ng/mL |
| NC(=O)N1CCC(CC(=O)N2CCC([C@H]3c4ncc(Br)cc4CCc4cc(Cl)cc(Br)c43)CC2)CC1 | – | human, plasma | oral, 100 mg twice daily, cycle 2 day 15, added: gemcitabine 1000 mg/m2 | 645 ng/mL |
| O=C([O-])CCCCCCCNC(=O)c1ccccc1O.[Na+] | – | human, moderate hepatic impairment, plasma | oral, once daily, day 10, after dose 10, geometric mean | 2360 ng/mL |
| C=CCNC1=C2C[C@@H](C)C[C@H](OC)[C@H](O)[C@@H](C)/C=C(\C)[C@H](OC(N)=O)[C@@H](OC)/C=C\C=C(/C)C(=O)NC(=CC1=O)C2=O | – | human, plasma | intravenous infusion, 300 mg/m^2, day 1, 3 h infusion | 6 µM |
| COc1ccc2nc([S@@+]([O-])Cc3ncc(C)c(OC)c3C)[nH]c2c1 | – | human, CYP2C19 rapid metabolizers, plasma | oral, 40 mg/day, day 5 | 2800 ± 2230 ng/mL |
| Cc1[nH]c2ccccc2c1CCNCc1ccc(/C=C/C(=O)NO)cc1 | – | human, plasma | oral, 20 mg, fed, normal breakfast | 14 ng/mL |
| CC(=O)O[C@H]1C(=O)[C@@]2(C)[C@H]([C@H](OC(=O)c3ccccc3)[C@]3(O)C[C@H](OC(=O)[C@H](O)[C@@H](NC(=O)c4ccccc4)c4ccccc4)C(C)=C1C3(C)C)[C@]1(OC(C)=O)CO[C@@H]1C[C@@H]2O | – | human patients on multiple protease inhibitors, plasma | iv, 100 mg/m^2 over 3 h, cycle 1 | 1.22 ± 0.48 µM |
| COc1cc2nccc(Oc3ccc(NC(=O)NC4CC4)c(Cl)c3)c2cc1C(N)=O | – | human, plasma | oral, 5 mg, geometric mean, added: placebo | 43.7 ng/mL |
| CC(C)(C)OC[C@@H]1C(=O)NCCN1C(=O)C[C@H](N)Cc1cc(F)c(F)cc1F | – | human, male, plasma | oral, single dose, fixed-dose combination with metformin, fed | 5.86 ± 1.37 ng/mL |
| O=C(Cc1cccc(OC(F)(F)F)c1)Nc1ccc(CCCCc2nnc(NC(=O)Cc3ccccn3)s2)nn1 | – | human patients, plasma | oral, 100 mg three times daily fasted, cycle 1 day 15 steady state | 395 ng/mL |
| CC(C)c1nc(CN(C)C(=O)N[C@H](C(=O)N[C@@H](Cc2ccccc2)C[C@H](O)[C@H](Cc2ccccc2)NC(=O)OCc2cncs2)C(C)C)cs1 | – | human, plasma | oral, 100 mg, first dose of twice-daily regimen | 373 ng/mL |
| O=C(NC[C@H](O)CO)c1ccncc1Nc1ccc(I)cc1F | – | human | oral, 45 mg, single dose alone | 196 ng/mL |
| CCC(C)n1ncn(-c2ccc(N3CCN(c4ccc(OCC5COC(Cn6cncn6)(c6ccc(Cl)cc6Cl)O5)cc4)CC3)cc2)c1=O (stereo not shown) | – | human male, plasma | oral, 200 mg, day 3, geometric mean | 390 ng/mL |
| CCOc1cc([C@@H](CS(C)(=O)=O)N2C(=O)c3cccc(NC(C)=O)c3C2=O)ccc1OC | – | healthy human, both sexes, plasma | oral, 30 mg single dose, added: rifampicin multiple oral doses | 166 ng/mL |
| O=CC[C@@H](O)[C@H](O)[C@H](O)CO | HPLC-fluorescence | human patients, plasma | oral, 45 mg/kg/day, cycle 1 | 449 µM |
| Cc1ccc(C(=O)NC2CC2)cc1-n1ncc(C(=O)c2cccc(C#N)c2)c1N | – | healthy human | oral, 14 mg single, geometric mean | 111 ng/mL |
| CNC(=O)c1ccc(-c2cnc3ncc(Cc4ccc5ncccc5c4)n3n2)cc1F | – | human mild hepatic impairment | oral, 200 mg single dose, adjusted geometric mean | 1260 ng/mL |
| C=CC(=O)Nc1cc(Nc2ncc(C(=O)OC(C)C)c(-c3cn(C)c4ccccc34)n2)c(OC)cc1N(C)CCN(C)C | – | human, fasted | oral, 80 mg single dose, arithmetic mean | 17.6 ng/mL |
| CNc1nc(Nc2ccc(-n3cnc(C)n3)c(OC)c2)nc2c1CC[C@H]2c1ccc(F)cc1 | – | healthy humans, both sexes, plasma | oral, 900 mg single dose | 748 ng/mL |
